Measurements gathered from unrelated publications.
Compare with care: the assays were run in different laboratories. Values joined by “and” are separate records of one study, mostly repeats; a detail may differ. ± gives the spread as reported.
UniProt P46109, sequence (whole entry, looked up): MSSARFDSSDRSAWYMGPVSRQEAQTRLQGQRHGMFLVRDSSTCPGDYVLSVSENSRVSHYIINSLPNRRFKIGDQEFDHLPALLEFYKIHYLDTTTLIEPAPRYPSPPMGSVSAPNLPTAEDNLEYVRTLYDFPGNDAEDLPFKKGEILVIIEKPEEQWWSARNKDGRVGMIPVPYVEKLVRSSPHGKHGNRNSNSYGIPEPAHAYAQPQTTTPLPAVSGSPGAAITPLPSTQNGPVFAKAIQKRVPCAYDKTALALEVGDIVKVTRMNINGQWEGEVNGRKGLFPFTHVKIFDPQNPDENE

For `CN1CC[C@]23c4c5ccc(O)c4O[C@H]2[C@@H](O)C=C[C@H]3[C@H]1C5`, the ED50 was 6.47 mg/kg (antinociception, hot-water tail withdrawal; STZ-diabetic Sprague-Dawley rats; intraperitoneal).
`C[C@]12CC[C@H]3[C@@H](CC=C4CC(O)CC[C@@]43CO)[C@@H]1CCC2O` (some centres unmarked) — result for “plasma AST level”: “decreased” (GAN diet MASH rats; ip, 20 mg/kg, two weeks; baseline: GAN vehicle).
For `COC(=O)[C@H]1[C@@H](OC(=O)c2ccccc2)C[C@@H]2CC[C@H]1N2C`, “dose with highest response rate” read 0.32 mg/kg/injection (self-administration; male Sprague-Dawley rat; intravenous).
`C=CCNCCc1c[nH]c2cccc(O)c12.C=CCNCCc1c[nH]c2cccc(O)c12.O=C(O)/C=C/C(=O)O` — result for “body temperature change”: -0.2 ± 0.1 °C (C57BL/6J mice; subcutaneous, 0.3 mg/kg; baseline: pre-session baseline).
Under “paw licking time”, `C=CCN1CC[C@]23c4c5ccc(O)c4O[C@H]2C(=O)CC[C@@]3(O)[C@H]1C5` is recorded as 76 s and 112 s and 93 s (formalin test; male ICR-CD1 mice; sc, 5 mg/kg, 15 to 30 min).
`C#CCN(C)[C@H](C)Cc1ccccc1` — result for “striatal HVA content”: 0.566 ng/mg tissue and 1.21 ng/mg tissue and 0.609 ng/mg tissue and 0.732 ng/mg tissue and 1 ng/mg tissue and 0.662 ng/mg tissue and 1.26 ng/mg tissue (HPLC-ECD; MPTP mouse model, striatum; 10 mg/kg).
For `CC(C)C[C@H](CN)CC(=O)O`, “action potential threshold” read -46.1 mV and -26.9 mV and -38.3 mV and -39.8 mV and -36 mV and -30.7 mV (whole-cell current clamp; DRG neurons, rat, spinal cord injury; 10 µM, overnight, with: nimodipine 5 µM).
`CN1CC[C@]23c4c5ccc(O)c4O[C@H]2[C@@H](OS(=O)(=O)O)C=C[C@H]3[C@H]1C5` has an ED50 of 0.35 mg/kg (antinociception, hot-water tail withdrawal; STZ-diabetic Sprague-Dawley rats; intraperitoneal).
With `Nc1nc(Cl)nc2c1ncn2[C@H]1C[C@H](O)[C@@H](CO)O1` the maximum inhibition was 0% (human coronavirus OC43; virus-induced cell killing; MRC-5; maximum over 10 doses).
`CC(C)NCCc1c[nH]c2cccc(O)c12.O=C(O)/C=C/C(=O)O`: “body temperature change” -0.2 ± 0.2 °C (C57BL/6J mice; subcutaneous, 10 mg/kg; baseline: pre-session baseline).
Under “log2 fold change”, `CC[C@H](C)[C@@H]1NC(=O)[C@@H]2CCCN2C(=O)[C@H](CC(C)C)NC(=O)[C@H](CC(C)C)NC(=O)CNC(=O)[C@@H](NC(=O)[C@@H](NC(=O)[C@H](CC(=O)O)NC(=O)CNC(=O)[C@@H](NC(=O)[C@H](C)NC(=O)CNC(=O)[C@H](CCCCN)NC(=O)[C@H](CC(C)C)NC(=O)[C@H](CC(C)C)NC(=O)[C@H](CCCCN)NC(=O)CNC(=O)[C@@H](NC(=O)[C@@H](N)CC(C)C)C(C)C)C(C)C)C(C)C)CSSC[C@@H](C(=O)O)NC1=O` is recorded as -2.25 (RNA-seq, item: Lrrc25; mouse, traumatic brain injury model, frontal cortex and hippocampus; dose not given; baseline: TBI alone).
The relative abundance of `C[C@H]1CN(c2n[nH]c3nc(N[C@H]4CC[C@H](NS(=O)(=O)CCC(F)(F)F)CC4)ncc23)CCO1` is reported as 1.04 (Crk-like protein (Homo sapiens, UniProt P46109); competitor, Kinobeads competition; human cell extract; 0.032 µM; baseline: vehicle).
For `COc1cc(CC(C)N)c(OC)cc1C.Cl` (racemic), the ED50 was 1.25 µmol/kg (stimulus generalization, drug discrimination; Sprague-Dawley rat; i.p., with: trained on 1.0 mg/kg compound vs saline).
`Cl.N#Cc1ccc(C(=O)N[C@H]2CC[C@@]3(O)[C@H]4Cc5ccc(O)c6c5[C@@]3(CCN4CC3CC3)[C@H]2O6)s1` has an AD50 of 8.18 mg/kg (antagonist, warm-water tail immersion; Swiss Webster mouse; subcutaneous, with: morphine 10 mg/kg s.c.).
`CCCCNCCc1c[nH]c2cccc(O)c12.O=C(O)/C=C/C(=O)O`: “body temperature change” -0.4 ± 0.2 °C (C57BL/6J mice; subcutaneous, 10 mg/kg; baseline: pre-session baseline).
For `CCc1c2c(nc3ccc(OC(=O)N4CCC(N5CCCCC5)CC4)cc13)-c1cc3c(c(=O)n1C2)COC(=O)[C@]3(O)CC.Cl.O.O.O`, the maximum inhibition was 0% (human coronavirus OC43; virus-induced cell killing; MRC-5; maximum over 10 doses).
`O=C(O)/C=C/C(=O)O.Oc1cccc2[nH]cc(CCNC3CCCCC3)c12`: “body temperature change” -0.3 ± 0.1 °C (C57BL/6J mice; subcutaneous, 10 mg/kg; baseline: pre-session baseline).
`COc1ccc2[nH]cc(CCN(C)C)c2c1` gave an ED50 of 0.86 mg/kg (DOM stimulus generalization; rat trained on DOM; intraperitoneal, 15 min pretreatment, training dose 1.0 mg/kg DOM).
For `CC(C)(C)NCCc1c[nH]c2cccc(O)c12.CC(C)(C)NCCc1c[nH]c2cccc(O)c12.O=C(O)/C=C/C(=O)O`, “body temperature change” read 0 ± 0.1 °C (C57BL/6J mice; subcutaneous, 3 mg/kg; baseline: pre-session baseline).
`CCCC(C(=O)c1ccc2c(c1)OCO2)N1CCCC1.Cl` (racemic) — result for 5-HIAA level: “no effect” (HPLC-ECD; rat, striatum postmortem; dose not given, 40 and 240 min).

Some of these lines once more:
`COc1ccc2[nH]cc(CCN(C)C)c2c1` gave an ED50 of 0.86 mg/kg (DOM stimulus generalization; rat trained on DOM; intraperitoneal, 15 min pretreatment, training dose 1.0 mg/kg DOM).
For `CC(C)(C)NCCc1c[nH]c2cccc(O)c12.CC(C)(C)NCCc1c[nH]c2cccc(O)c12.O=C(O)/C=C/C(=O)O`, “body temperature change” read 0 ± 0.1 °C (C57BL/6J mice; subcutaneous, 3 mg/kg; baseline: pre-session baseline).
`CCCC(C(=O)c1ccc2c(c1)OCO2)N1CCCC1.Cl` (racemic) — result for 5-HIAA level: “no effect” (HPLC-ECD; rat, striatum postmortem; dose not given, 40 and 240 min).
